Experimental data gathered from unrelated publications.
Compare with care: the assays were run in different laboratories. Values joined by “and” are separate records of one study, mostly repeats; a detail may differ. ± gives the spread as reported.

Under “paw edema volume”, `Cc1ccc(N(O)N=Nc2ccc(S(=O)(=O)Nc3cc(C)on3)cc2)cc1` is recorded as 3.71 ± 0.12 a.u. (carrageenan-induced paw edema; Wistar rat; oral, 100 mg/kg, 0 h (baseline), with: carrageenan 1% subplantar; higher = more edema).
`OC(CCN1CCCCC1)(c1ccccc1)C1CC2C=CC1C2` (stereo not shown): “change in EEG Beta1-power Pz-O2” -12.7% (resting-state EEG; healthy elderly humans; oral, 2 mg, eyes closed, LS mean; reference: baseline).
The sarcomere length of `CC(C)NCC(O)c1ccc(O)c(O)c1` (stereo not shown) is reported as 1.72 µm (ventricular cardiomyocytes, C57BL/6 mouse; dose not given, 0.38 s).
For `CCOC(=O)c1ccc(N)cc1`, “tail flick latency AUC” read 835 a.u. and 1250 a.u. and 1670 a.u. and 784 a.u. and 441 a.u. (CD-1 mouse female; subcutaneous, 6.5 mg/mouse, 0 to 180 min; higher = stronger analgesia).
`Cc1noc(C)c1-c1cc(C(O)(c2ccccn2)c2ccccn2)c2nc(C3CC3)[nH]c2c1` has a maximum induction of 16% (refers to: HEXIM1 expression; human, peripheral blood; 3 mg, day 1, 1604 study).
`Cc1nn(-c2nc3c(F)cc(F)cc3s2)c(O)c1C(c1ccc(C(F)(F)F)cc1)c1c(C)nn(-c2nc3c(F)cc(F)cc3s2)c1O`: “total histology score” 1.67 and 0 and 0.667 and 2.33 and 6.33 (mouse, cerulein-induced acute pancreatitis; 25 mg/kg; direction not given).
With `O=C(O)CNC(=O)Cc1ccccc1` the sarcomere length was 1.72 µm (ventricular cardiomyocytes, C57BL/6 mouse; dose not given, 0.668 s).
`Cc1n[nH]c2ccc(-c3cc(OC[C@@H](N)Cc4ccccc4)cnc3-c3ccoc3)cc12` — result for “log2 fold change”: -0.229 (kinase binding, competitor, MIB/MS competition, refers to: YAK1; Candida albicans cell lysate; 100 nM; reference: DMSO).
`Cc1noc(NS(=O)(=O)c2ccc(N=NN(C)O)cc2)c1C`: “paw edema volume” 3.63 ± 0.12 a.u. (carrageenan-induced paw edema; Wistar rat; oral, 100 mg/kg, 0 h (baseline), with: carrageenan 1% subplantar; higher = more edema).
The inhibition of `CN[C@@H]1COc2c(S(=O)(=O)NC(=O)Nc3c4c(cc5c3CCC5)CCC4)cnn2C1` is reported as 99% (refers to: IL-1β; human participants, whole blood ex vivo; 450 mg single dose, 4 h, with: LPS/ATP; reference: baseline).
`C[C@@H](O)CCOC(=O)C[C@@H](C)O` gave a plasma NEFA of 0.1 mM (human; oral drink, dose not given, 120 min post dose, median, all participants).
`COc1ncnn2ccc(-c3cnc4nc(C)n(Cc5nnc([C@@H](C)F)o5)c4c3)c12` — result for “complete remission rate”: 25% (relapsed or refractory AML patients; dose not given).
The serum adiponectin of `COc1ccccc1[C@H](Cn1c(=O)n(C(C)(C)C(=O)O)c(=O)c2c(C)c(-c3ncco3)sc21)OC1CCOCC1` is reported as 5.47 ± 2.24 µg/mL (human; 50 mg, post-treatment).
`C[C@H](Oc1ccc(Br)cc1-c1ccon1)C(=O)O`: “difference from placebo” 3.44% (response peak; human, tibialis anterior muscle; 1200 mg, 30 Hz+30 s).
For `N#Cc1ccn2c(-c3ccncc3)c(-c3ccc(F)cc3)nc2c1`, “log2 fold change” read 0.165 (kinase binding, competitor, MIB/MS competition, refers to: MCK1; Candida albicans cell lysate; 1 µM; reference: DMSO).
For `COc1cc(-c2ccccc2)ncc1C(=O)Nc1ccc2c(=O)[nH]c(-c3ccc(C(C)(C)O)cc3)nc2c1`, “normalized enrichment score” read -2.17 (RNA-seq GSEA, refers to: FALLER_STEM_MOUSE; organoids, small intestinal, Apc Q1405X, mouse; dose not given, knockout organoids; reference: DMSO, direction not given).
`COc1cc(F)c([C@@H]2CNC(=O)[C@H]2NC(=O)Nc2ccccc2)c(F)c1` — result for “left ventricular end-diastolic volume”: 300 ± 82 µL (terminal haemodynamics; rat, permanent coronary occlusion MI; 1 mg/kg, 1008 h, 6 weeks post-MI).
`COc1cc2cc(-c3ccc(CC(=O)Nc4cc(C(C)(C)C(F)(F)F)no4)cn3)cnc2cc1OC` — result for “best overall response PD”: 5% (RECIST v1.1; human RET fusion-positive NSCLC; 75 mg, phase I).
`Cc1cc(NS(=O)(=O)c2ccc(N=NN(O)c3ccccc3)cc2)no1`: “paw edema volume” 3.6 ± 0.46 a.u. (carrageenan-induced paw edema; Wistar rat; oral, 100 mg/kg, 0 h (baseline), with: carrageenan 1% subplantar; higher = more edema).
`Cn1cc(Nc2nccc(-c3ccc4c(c3)CN(C3COC3)CC[C@H]4NC(=O)c3cn(C(C)(C)C)nn3)n2)cn1` — result for “pathway activation z-score”: 4.24 (refers to: NGF signalling; mouse splenic B cells, mouse; 30 mg/kg, IgD-activated B cells in vivo; reference: vehicle, direction not given).
`CC1(C)CCC(c2ccc(Cl)cc2)=C(CN2CCN(c3ccc(C(=O)NS(=O)(=O)c4ccc(N[C@H](CCN5CCOCC5)CSc5ccccc5)c(S(=O)(=O)C(F)(F)F)c4)cc3)CC2)C1` has an EC50 of 184 nM (cell killing; canine lymph node CD21+ B cells, dog 39; 24 h).
Under “RV cardiomyocyte cross-sectional area”, `O=C1c2ccncc2C(=O)c2c1[nH]c1ccccc21` is recorded as “decreased” (decreased; rat, female, monocrotaline PAH model, heart right ventricle; intravenous, 1 mg/kg every 48 h, days 17-27; reference: monocrotaline plus saline).
`CCN(O)N=Nc1ccc(S(=O)(=O)Nc2onc(C)c2C)cc1`: “paw edema volume” 3.39 ± 0.45 a.u. (carrageenan-induced paw edema; Wistar rat; oral, 100 mg/kg, 0 h (baseline), with: carrageenan 1% subplantar; higher = more edema).
For `C[C@H]1C[C@H]2CSC(N)=N[C@@]2(c2nc(NC(=O)c3ccc(OC(F)F)cn3)cs2)CO1`, “percent change from baseline” read -40% (refers to: Aβx-40; healthy adults, plasma; 12 mg single dose, 48 h post-dose; reference: placebo).
Under “patients with IPA above 80%”, `CC(=O)Oc1cc2c(s1)CCN(C(C(=O)C1CC1)c1ccccc1F)C2` (stereo not shown) is recorded as 0% (light transmittance aggregometry; human patients, platelet-rich plasma; dose not given, 30 min, with: ADP 20 µM; reference: patients).
`Cc1cc(F)cc2c(CCC(=O)N[C@@H]3C(=O)NC[C@H]3O)c(-c3ccc(F)cc3)[nH]c12` — result for “UACR AUC days 6-14”: 4660 µg·days/mg and 7660 µg·days/mg and 6850 µg·days/mg and 40600 µg·days/mg and 6380 µg·days/mg and 21400 µg·days/mg (mice, APOL1 G2, single copy; oral, 30 mg/kg twice daily, dosing from day 6, with: IFNγ plasmid injection).
The mRNA level of `COc1cc(/C=C/C(=O)N2CCC=CC2=O)cc(OC)c1OC` is reported as 0.535 (quantitative RT-PCR, refers to: XIAP, normalised to beta-actin; nude mouse, MDA-MB-468 xenograft, tumour; 15 mg/kg, 21 days, unit not given; reference: DMSO).
For `OCCCN1CC[C@@H]2C[C@H]1c1cc(-c3ccc(C(F)(F)F)cc3)ccc12`, “duration of hypersensitivity reversal” read ~4 days (mechanical hypersensitivity, von Frey test; wild-type mice, spared nerve injury; intravenous, 20 mg/kg).
For `COc1ccc(C2=N[C@@H](c3ccc(Cl)cc3)[C@@H](c3ccc(Cl)cc3)N2C(=O)N2CCNC(=O)C2)c(OC(C)C)c1`, “centrally nucleated fibres” read 97% and 85% and 90% and 78% and 86% (histology; Dmd C3333Y mice, tibialis anterior; dose not given).
Under “paw edema volume”, `CCN(O)N=Nc1ccc(S(=O)(=O)Nc2cc(C)on2)cc1` is recorded as 5.46 ± 0.66 a.u. (carrageenan-induced paw edema; Wistar rat; oral, 100 mg/kg, 2 h after carrageenan, with: carrageenan 1% subplantar; higher = more edema).
For `c1ccc(-c2n[nH]cc2-c2ccnc3ccccc23)nc1`, “log2 fold change” read 1.08 (kinase binding, competitor, MIB/MS competition, refers to: YAK1; Candida albicans cell lysate; 10 µM; reference: DMSO).
For `O=C(OC(C(F)(F)F)C(F)(F)F)N1CCN(Cc2cccc(Oc3ccccc3)c2)CC1`, “tracer distribution volume” read 6.77 mL/cm3 (PET; rhesus monkey, cerebellum; intravenous, 0.01 mg/kg, pretreatment, with: [18F]T-401).
The IC50 of `COc1nc(NCc2cn(-c3ccc(NC(=O)c4ccc(C)cc4)cc3)nn2)nc(OC)n1` is reported as 25.2 ± 6.94 nM (cell viability, MTT; normal colonocytes, rat; 72 h).
`CCCN(O)N=Nc1ccc(S(=O)(=O)Nc2onc(C)c2C)cc1` — result for “paw edema volume”: 5.39 ± 0.93 a.u. (carrageenan-induced paw edema; Wistar rat; oral, 100 mg/kg, 1 h after carrageenan, with: carrageenan 1% subplantar; higher = more edema).
`NCC(=O)Nc1cncc(-c2nn3c(=O)cc(N4CCNCC4)nc3s2)c1`: “inhibition of platelet aggregation” 69.2% (ADP-induced platelet aggregation, light transmission aggregometry; stable CAD patients on aspirin; subcutaneous, 0.05 mg/kg, 30 min post-dose, with: ADP 20 µM; reference: placebo).
`Cc1cn(-c2ccc3n(c2=O)CCN([C@@H](C)[C@@H]2CC[C@H](c4cc(F)c(Cl)cc4C(F)(F)F)O2)C3=O)cn1`: “CSF Aβ42 change” -64.8% (human, CSF; 360 mg once daily, 14 days, multiple dose, single LP; reference: placebo).
`NC(=O)c1cnc2[nH]ccc2c1N[C@@H]1[C@@H]2CC3C[C@H]1C[C@@](O)(C3)C2` gave a percent change of 0.5% (total naive T cells, flow cytometry; Japanese humans, peripheral blood; 20 mg single dose; reference: baseline).

A few entries again:
The sarcomere length of `CC(C)NCC(O)c1ccc(O)c(O)c1` (stereo not shown) is reported as 1.72 µm (ventricular cardiomyocytes, C57BL/6 mouse; dose not given, 0.38 s).
For `CCOC(=O)c1ccc(N)cc1`, “tail flick latency AUC” read 835 a.u. and 1250 a.u. and 1670 a.u. and 784 a.u. and 441 a.u. (CD-1 mouse female; subcutaneous, 6.5 mg/mouse, 0 to 180 min; higher = stronger analgesia).
`Cc1noc(C)c1-c1cc(C(O)(c2ccccn2)c2ccccn2)c2nc(C3CC3)[nH]c2c1` has a maximum induction of 16% (refers to: HEXIM1 expression; human, peripheral blood; 3 mg, day 1, 1604 study).
`Cc1nn(-c2nc3c(F)cc(F)cc3s2)c(O)c1C(c1ccc(C(F)(F)F)cc1)c1c(C)nn(-c2nc3c(F)cc(F)cc3s2)c1O`: “total histology score” 1.67 and 0 and 0.667 and 2.33 and 6.33 (mouse, cerulein-induced acute pancreatitis; 25 mg/kg; direction not given).
With `O=C(O)CNC(=O)Cc1ccccc1` the sarcomere length was 1.72 µm (ventricular cardiomyocytes, C57BL/6 mouse; dose not given, 0.668 s).
